Experimental data of several laboratories.
Compare with care: the assays were run in different laboratories. ± gives the spread as reported.
MPO: Myeloperoxidase (MPO, Homo sapiens, UniProt P05164)
Chain of UniProt P05164 (whole entry, looked up): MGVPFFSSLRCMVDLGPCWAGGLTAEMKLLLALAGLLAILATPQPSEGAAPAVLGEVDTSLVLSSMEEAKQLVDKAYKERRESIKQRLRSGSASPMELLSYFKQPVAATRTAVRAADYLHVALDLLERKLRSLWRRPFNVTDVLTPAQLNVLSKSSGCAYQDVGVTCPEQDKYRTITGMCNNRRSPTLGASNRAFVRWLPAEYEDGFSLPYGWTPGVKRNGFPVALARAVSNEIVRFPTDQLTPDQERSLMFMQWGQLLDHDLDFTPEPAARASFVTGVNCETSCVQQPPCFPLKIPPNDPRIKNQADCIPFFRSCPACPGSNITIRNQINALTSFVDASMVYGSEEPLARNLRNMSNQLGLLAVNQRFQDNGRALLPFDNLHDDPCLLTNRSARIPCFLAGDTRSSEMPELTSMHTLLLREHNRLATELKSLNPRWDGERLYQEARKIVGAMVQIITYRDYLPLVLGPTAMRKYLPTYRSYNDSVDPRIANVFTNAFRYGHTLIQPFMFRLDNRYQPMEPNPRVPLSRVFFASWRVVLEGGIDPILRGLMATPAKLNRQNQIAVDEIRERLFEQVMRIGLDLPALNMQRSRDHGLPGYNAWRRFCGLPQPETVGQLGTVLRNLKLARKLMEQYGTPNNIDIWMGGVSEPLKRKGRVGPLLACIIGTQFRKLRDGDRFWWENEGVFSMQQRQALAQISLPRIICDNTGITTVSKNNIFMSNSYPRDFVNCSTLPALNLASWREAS
CTSL: Procathepsin L (CTSL, Homo sapiens, UniProt P07711)
Chain of UniProt P07711 (whole entry, looked up): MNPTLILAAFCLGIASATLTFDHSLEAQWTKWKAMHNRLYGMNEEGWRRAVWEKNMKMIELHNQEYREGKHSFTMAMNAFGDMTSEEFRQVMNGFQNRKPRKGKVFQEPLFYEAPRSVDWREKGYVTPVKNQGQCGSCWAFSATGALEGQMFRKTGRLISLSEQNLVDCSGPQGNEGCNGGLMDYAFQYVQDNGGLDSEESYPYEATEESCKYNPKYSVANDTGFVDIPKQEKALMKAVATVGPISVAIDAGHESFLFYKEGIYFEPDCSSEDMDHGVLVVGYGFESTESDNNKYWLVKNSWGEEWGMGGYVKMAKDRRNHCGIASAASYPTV
CSNK1E: Casein kinase I isoform epsilon (CSNK1E, Homo sapiens, UniProt P49674)
Chain of UniProt P49674 (whole entry, looked up): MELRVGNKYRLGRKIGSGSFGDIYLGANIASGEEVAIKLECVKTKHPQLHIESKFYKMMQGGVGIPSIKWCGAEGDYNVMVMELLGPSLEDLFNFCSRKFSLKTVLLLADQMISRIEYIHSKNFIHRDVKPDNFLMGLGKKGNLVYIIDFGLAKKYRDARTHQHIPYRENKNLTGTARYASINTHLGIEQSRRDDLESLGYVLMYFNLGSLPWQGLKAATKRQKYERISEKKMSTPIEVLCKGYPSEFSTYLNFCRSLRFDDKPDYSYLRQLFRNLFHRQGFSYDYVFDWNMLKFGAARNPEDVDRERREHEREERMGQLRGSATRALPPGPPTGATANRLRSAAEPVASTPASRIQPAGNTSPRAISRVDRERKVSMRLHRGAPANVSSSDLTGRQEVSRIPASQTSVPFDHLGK
NTRK2: BDNF/NT-3 growth factors receptor (NTRK2, Homo sapiens, UniProt Q16620)
Chain of UniProt Q16620 (whole entry, looked up): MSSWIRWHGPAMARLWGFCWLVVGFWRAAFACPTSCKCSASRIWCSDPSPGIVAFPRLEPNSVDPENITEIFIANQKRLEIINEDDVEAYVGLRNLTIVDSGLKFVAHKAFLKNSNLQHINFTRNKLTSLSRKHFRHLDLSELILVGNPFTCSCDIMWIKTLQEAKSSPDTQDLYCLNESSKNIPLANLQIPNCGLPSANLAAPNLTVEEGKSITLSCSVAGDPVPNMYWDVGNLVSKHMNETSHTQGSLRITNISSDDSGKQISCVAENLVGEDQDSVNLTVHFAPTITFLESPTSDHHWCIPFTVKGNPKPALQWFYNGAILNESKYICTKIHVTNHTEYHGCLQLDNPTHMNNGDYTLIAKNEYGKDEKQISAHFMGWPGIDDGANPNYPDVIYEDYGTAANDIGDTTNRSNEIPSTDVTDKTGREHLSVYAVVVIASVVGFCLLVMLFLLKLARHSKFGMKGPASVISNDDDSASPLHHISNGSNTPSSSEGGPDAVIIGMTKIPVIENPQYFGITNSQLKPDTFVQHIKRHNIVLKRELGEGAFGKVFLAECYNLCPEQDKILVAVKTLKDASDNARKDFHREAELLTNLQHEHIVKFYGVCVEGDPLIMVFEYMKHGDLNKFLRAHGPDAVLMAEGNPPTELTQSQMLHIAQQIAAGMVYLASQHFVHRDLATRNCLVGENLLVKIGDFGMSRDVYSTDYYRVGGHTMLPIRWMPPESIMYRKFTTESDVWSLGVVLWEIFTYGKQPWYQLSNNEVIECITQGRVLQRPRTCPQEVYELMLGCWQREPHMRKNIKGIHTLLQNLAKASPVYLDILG
MAP3K3: Mitogen-activated protein kinase kinase kinase 3 (MAP3K3, Homo sapiens, UniProt Q99759)
Chain of UniProt Q99759 (whole entry, looked up): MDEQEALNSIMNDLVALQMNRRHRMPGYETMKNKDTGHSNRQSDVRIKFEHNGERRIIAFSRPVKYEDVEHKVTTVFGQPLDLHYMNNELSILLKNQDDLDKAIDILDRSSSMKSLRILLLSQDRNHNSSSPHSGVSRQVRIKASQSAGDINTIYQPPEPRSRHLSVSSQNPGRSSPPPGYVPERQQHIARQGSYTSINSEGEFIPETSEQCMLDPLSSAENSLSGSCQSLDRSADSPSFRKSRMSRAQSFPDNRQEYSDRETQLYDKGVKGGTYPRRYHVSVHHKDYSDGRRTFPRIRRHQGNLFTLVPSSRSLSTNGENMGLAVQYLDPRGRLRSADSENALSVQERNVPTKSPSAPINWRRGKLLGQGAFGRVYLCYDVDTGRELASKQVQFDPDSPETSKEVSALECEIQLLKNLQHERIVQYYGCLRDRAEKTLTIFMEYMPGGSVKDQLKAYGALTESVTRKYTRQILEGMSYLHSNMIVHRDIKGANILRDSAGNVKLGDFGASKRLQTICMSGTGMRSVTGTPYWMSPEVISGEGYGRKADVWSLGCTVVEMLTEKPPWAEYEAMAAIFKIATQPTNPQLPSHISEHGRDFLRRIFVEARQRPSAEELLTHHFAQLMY
Chain of UniProt O60331 (whole entry, looked up): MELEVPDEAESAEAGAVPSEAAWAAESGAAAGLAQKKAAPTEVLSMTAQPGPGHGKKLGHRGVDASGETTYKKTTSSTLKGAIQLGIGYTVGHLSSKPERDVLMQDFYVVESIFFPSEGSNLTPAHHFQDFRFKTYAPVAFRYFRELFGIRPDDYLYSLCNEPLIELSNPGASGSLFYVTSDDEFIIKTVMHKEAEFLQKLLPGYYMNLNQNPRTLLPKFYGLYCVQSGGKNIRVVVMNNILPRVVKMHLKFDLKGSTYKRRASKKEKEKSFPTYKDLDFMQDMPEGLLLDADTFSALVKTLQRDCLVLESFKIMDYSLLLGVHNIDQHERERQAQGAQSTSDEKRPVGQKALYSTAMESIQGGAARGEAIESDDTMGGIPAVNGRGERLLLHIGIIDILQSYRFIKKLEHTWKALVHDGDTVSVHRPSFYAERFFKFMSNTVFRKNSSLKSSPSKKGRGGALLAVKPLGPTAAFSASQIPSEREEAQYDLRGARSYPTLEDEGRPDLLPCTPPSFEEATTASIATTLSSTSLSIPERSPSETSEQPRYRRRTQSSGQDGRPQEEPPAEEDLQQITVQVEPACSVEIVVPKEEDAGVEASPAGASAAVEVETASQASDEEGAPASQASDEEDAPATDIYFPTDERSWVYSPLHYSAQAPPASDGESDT
Chain of UniProt O43318 (whole entry, looked up): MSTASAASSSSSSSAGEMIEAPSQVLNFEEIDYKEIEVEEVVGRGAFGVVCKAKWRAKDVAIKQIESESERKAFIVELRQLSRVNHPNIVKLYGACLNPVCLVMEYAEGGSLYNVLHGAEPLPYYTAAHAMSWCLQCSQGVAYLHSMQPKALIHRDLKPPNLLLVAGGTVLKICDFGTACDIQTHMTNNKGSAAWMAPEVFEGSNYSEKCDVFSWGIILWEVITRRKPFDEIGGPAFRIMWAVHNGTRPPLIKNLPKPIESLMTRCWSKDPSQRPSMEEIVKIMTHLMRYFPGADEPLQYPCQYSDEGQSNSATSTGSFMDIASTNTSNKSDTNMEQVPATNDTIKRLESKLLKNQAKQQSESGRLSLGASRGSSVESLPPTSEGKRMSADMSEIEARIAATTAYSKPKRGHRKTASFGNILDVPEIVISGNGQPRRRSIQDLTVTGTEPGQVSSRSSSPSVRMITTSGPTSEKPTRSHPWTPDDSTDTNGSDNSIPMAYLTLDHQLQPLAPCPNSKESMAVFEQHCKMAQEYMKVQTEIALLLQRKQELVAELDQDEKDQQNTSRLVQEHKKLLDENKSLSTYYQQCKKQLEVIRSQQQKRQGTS

O=C1NC(=O)/C(=C/c2ccc(-c3ccc(F)cc3O)o2)S1  remaining activity (Ephrin type-A receptor 2 (EPHA2, Homo sapiens, UniProt P29317); enzyme activity; 10 µM): 51%
NC/C(=C\F)COc1cccc(Cn2c(=S)[nH]c(=O)c3[nH]cnc32)c1  remaining activity (MPO; LDL lipid peroxidation, inhibitor, item: cholesteryl ester hydroperoxide; 0.0556 µM; baseline: control): 20.6%
CC(C)C(=O)Nc1n[nH]c2cc(-c3cccc(NS(=O)(=O)C4CC4)c3)ccc12  remaining activity (Phosphatidylinositol 4-phosphate 5-kinase type-1 gamma (PIP5K1C, Homo sapiens, UniProt O60331); ADP-Glo; 41.2 nM; baseline: DMSO): 98.5%
Cc1ccc(C[C@H](NC(=O)OC(C)(C)C)C(=O)NC/C=C/S(=O)(=O)c2ccccc2)cc1  remaining activity (CTSL; inhibitor; 5 µM, 60 min, with: Z-Phe-Arg-pNA; baseline: uninhibited control): 6%
C=CC[C@@H]1c2ccc(OC)c(OC)c2CN2CCc3cc4c(cc3[C@H]12)OCO4  remaining activity (P2X purinoceptor 7 (P2RX7, Homo sapiens, UniProt Q99572); ATP-evoked current, inhibitor, whole-cell patch clamp; HEK293 transfected; 0.3 µM): 50.5%
CC#CC(=O)N1CCC[C@H]1c1nc(-c2ccc(C(=O)Nc3ccccn3)cc2)c2c(N)nccn12  remaining activity (CSNK1E; kinase activity, inhibitor, HotSpot radiometric; 100 nM, with: ATP 10 µM): 106 ± 2.4%
CNc1ncc2c(/C=C/C(=O)N3CCC(OC)CC3)nn(Cc3cccc(C(F)(F)F)c3)c2n1  remaining activity (Eukaryotic translation initiation factor 2-alpha kinase 1 (EIF2AK1, Homo sapiens, UniProt Q9BQI3); kinase activity, inhibitor; 1 µM; baseline: untreated control): 105%
C=CC(=O)N1CCC([C@@H]2CCNc3c(C(N)=O)c(-c4ccc(Oc5ccccc5)cc4)nn32)CC1  remaining activity (CSNK1E; kinase activity, inhibitor, HotSpot radiometric; 100 nM, with: ATP 10 µM): 108 ± 1.1%
O=C(O)c1ccc(Nc2ncc3c(n2)-c2ccc(Cl)cc2C(c2c(F)cccc2F)=NC3)cc1  remaining activity (EphA1(h); kinase activity; 1 µM): 29%
COc1cc(N2CCN(C)CC2)ccc1Nc1nc(N)n(C(=S)NCc2c(Cl)cccc2Cl)n1  remaining activity (Serine/threonine-protein kinase SBK1 (SBK1, Homo sapiens, UniProt Q52WX2); enzyme activity; 10 µM; baseline: control): 0.15%
COc1cc(F)ccc1-c1ncnc(Nc2cccc(C[S@](C)(=N)=O)c2)n1  remaining activity (NTRK2; kinase activity; 10 µM, with: 10 µM ATP): 41%
C=CC(=O)N1CCC[C@@H](n2nc(-c3ccc(Oc4ccccc4)cc3)c3c(N)ncnc32)C1  remaining activity (Protein kinase C alpha type (PRKCA, Homo sapiens, UniProt P17252); 0.1 µM): 143%
O=C(NC1CCC1)c1ccc2nc(-c3cccc(NS(=O)(=O)NCCN4CCCCC4)c3)cn2c1  remaining activity (Mitogen-activated protein kinase kinase kinase 15 (MAP3K15, Homo sapiens, UniProt Q6ZN16); enzyme activity; 10 µM): 79%
CC(C)(C)c1nc2c(s1)c1nc(N)ncc1c1ccc(NS(=O)(=O)c3c(F)cccc3F)c(F)c12  remaining activity (Mitogen-activated protein kinase kinase kinase 7, with TAB1 (MAP3K7, Homo sapiens, UniProt O43318); kinase activity, radiometric 33PanQinase; 1 µM; baseline: DMSO): 86%
COc1cc(Nc2ncc3c(n2)-c2ccc(Cl)cc2C(c2c(F)cccc2OC)=NC3)ccc1C(=O)O  remaining activity (p38 gamma (MAPK12); inhibitor, biochemical kinase; 1 µM): 99%
COc1cc(-c2cncc3c2CN(C)Cc2cc(N4CCNCC4)ccc2-3)cc(OC)c1OC  remaining activity (CSNK1E; kinase activity; 1 µM, human enzyme, with: ATP 10 µM; baseline: DMSO control): 119%
Nc1ncnc2c1ncn2C1OC(CSCCNCc2cccc(-c3ccccc3)c2)C(O)C1O (centres unmarked)  remaining activity (mRNA (2'-O-methyladenosine-N(6)-)-methyltransferase (PCIF1, Homo sapiens, UniProt Q9H4Z3); 10 µM): 95.5%
Cc1cc(Nc2cc(N3CCN(C)CC3)nc(Sc3ccc(NC(=O)C4CC4)cc3)n2)[nH]n1  remaining activity (NTRK2; kinase activity, KinaseProfiler; 0.03 µM, species human; baseline: control): 82%
Cc1cc(NC(=O)c2cccc(NC(=O)/C=C/CN(C)C)c2)ccc1Nc1nccc(-c2cccnc2)n1  remaining activity (Mitogen-activated protein kinase 8 (MAPK8, Homo sapiens, UniProt P45983); enzyme activity, inhibitor; 2.79e-05 µM, 18 h, unit not given, with: GSH 10 mM pre-incubation; baseline: vehicle): 1.03
C=CC(=O)N1CCC[C@@H](n2nc(-c3ccc(Oc4ccccc4)cc3)c3c(N)ncnc32)C1  remaining activity (MAP3K3; kinase activity, inhibitor, HotSpot radiometric; 100 nM, with: ATP 10 µM): 83.3 ± 0.2%
CC(C)=CCC(O)C1=CC(=O)c2c(O)ccc(O)c2C1=O (centres unmarked)  remaining activity (CTSL; enzyme activity, inhibitor; 100 µM, with: Z-FR-AFC): 115%
COc1ccc(Cl)cc1-c1cc(=O)[nH]c(=S)n1CC(N)=O  remaining activity (MPO; 5 µM, 0.1 h): 7.74%
COc1ccc(F)cc1C(=O)NCc1ccc(-c2nn([C@@H](C)C(F)(F)F)c(N)c2C(N)=O)cc1  remaining activity (MAP3K3; kinase activity, inhibitor, HotSpot radiometric; 100 nM, with: ATP 10 µM): 81.8 ± 0.2%
